Experimental data collected from several papers.
Numbered parts are unrelated; each lists some results of a single study. Changes are numbered by the printed parent chain.

Sample 1 — technique: RNA Bind-n-Seq; form: RNA; medium: in vitro; tested at: 365 nM; baseline: no-protein control; direction: higher = stronger binding
Target: RNA binding protein fox-1 homolog 2, RRM domain, GST-SBP tag (RBFOX2, Homo sapiens, UniProt O43251-10, residues 100-194)
Setting: natural RNA segment, single round, ends assumed
Constant ends, left off below: GGGAGUUCUACAGUCCGACGAUC … UGGAAUUCUCGGGUGCCAA
Construct (chain): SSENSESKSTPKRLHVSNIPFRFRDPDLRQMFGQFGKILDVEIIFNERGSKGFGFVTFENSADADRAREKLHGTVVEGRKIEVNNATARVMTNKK
Strand | RBNS enrichment (R)
GAUCUUCUUCAGACAGCACUGCUGGAGUUAAGGAGUAGCUCGAGGUGAAGCUGGAUGGGGGAUCCAGUGGAGCAGGAGUUGACGGACAGUCCGUUCACAUCGCUGUGUUU | 0.528
ACAUGGAUAGUUGUGGCCACCUGCUGACUAUUUGUGGUUUAAAAUAAAAGGUUUACUUGUCUGCAGAUACCUGACUCUUAGUAUCUUUACUGCAUUUUGGGAGUGUUUCA | 0.892
UACCCUAGUGGUGGCGGUCAAGCUAACAAGUGUGAAAAUGCCUUUGGCAUUUUUAAAAAAGUGCAAUCAAUAAAGCAGAGUUCUGUCAAGAAUGAGUAAGUUAACAGCCA | 0.307
UAGACUCAGUCAGGAGUGGUGGUGACACUUGUAAUCCUAGACAGGCAAAAGGGUCACCAGAGGCUUGAGGCCAGCCAGGGCUCCAUAAGGAGAUCAGCCGCCCCCACCCA | 0.222
UAAUGGAAGAAUUGAGACAAAAAUCCAGUGUAGCUGGCCACUUAUCCAGGGCUUUUUCUACUUCAUCACAAGGAAUGUUUUGAAAGUGUCUGCUUUUUUUAUCCUUAAAA | 0.527
AUGAUUUUGCUCCUAGUUUUGAUUUCUGCCAGGAUUGAAUUAUUUCAAAAUCUCCUGUGUUUUUUAAGCUUUUUCAAAAUAGAUGUCUGAGGAAAACCAGCAGAAUAUUA | 0.633
AAAGAGGAAAUCUUAUUUAACCCUUUGUGUCCUAGAUUGACUUACACACAUAGCCUAGAGCUCAGUUUUAGUUUAACAUUGUGAAAAUAUUAAAAGAAUCUUGUAACUUU | 0.583
GUUCCCUACAGUUUGCUGCUGAGCUGGAAGCUGUGGGGGAAGGAGUUGACAGGUGGGCCCAGUGAACUUUUCCAGUAAAUGAAGCAAGCACUGAAUAAAAACCUCCUGAA | 0.27
CCUGCCCCCACCUUCCCAGUCCCACAGGCCACCCCUGGCUUGGGCUGGGUUCUGUGAAGUUACGUAUUUAUUGAGCUUUUGGUUCUUUUAUAAAGACUUGUCUAGACUCC | 0.307
CCCGUUCUAAUCGUCACCGCUCCUCCAGGUCUCCUAAUCUGGAUUCCACUACACCUCAUACUCUGGAGACAUGAGUAUUCCUCAUUUUUCCCAGAAGAAUCAUGGAAGGA | 0.314
UCUGUUUUGUUGUUAAUGCUCAGACAGUAUUGUCUGAGAAAUUACACCUGAGUGCAUUUAAGUAUUUAGAGUAUAAGUUUCAUGCAUAGAAAGUUAACCCUAUUAAUUUC | 0.469
AAAUGACAUUUGAAAGCCAUUAGACUUCUAGGUGAUGCAUCUAAGAAAGAUUAAUCACACAAUAGAGGCAUAUGCGCUGUCAUUUUUCCUUUUUUUAAUUGUUAAAUUGA | 0.289

Sample 2 — technique: aptamer microarray, sandwich; form: DNA with 2'F-ANA; medium: in vitro; tested at: 200 nM; added: Cy3 exosite-II aptamer, 400 nM; direction: higher = stronger binding; strand: GGTTGGTGTGGTTGG
Target: Prothrombin, mature alpha-thrombin (F2, Homo sapiens, UniProt P00734)
Setting: whole 15-mer aptamer, many near background
Modification | mean fluorescence intensity [a.u.]
2'F-ANA at 2 3 4 5 10 11 12 13 | 51.4
2'F-ANA at 2 4 6 8 13 14 | 95.5
2'F-ANA at 1 5 7 8 9 10 11 12 13 15 | 48.7
2'F-ANA at 1 3 9 10 11 14 15 | 58.7
2'F-ANA at 1 4 5 7 9 11 13 | 48.5
2'F-ANA at 2 4 5 6 7 9 10 12 13 15 | 51.7
2'F-ANA at 1 3 5 6 13 14 | 50.5
2'F-ANA at 1 2 3 5 13 14 | 71.4
2'F-ANA at 5 8 9 10 12 13 15 | 69.3
2'F-ANA at 4 9 12 15 | 456
2'F-ANA at 1 5 6 7 10 15 | 45.9
2'F-ANA at 2 3 4 6 7 8 10 13 | 192
2'F-ANA at 1 2 3 6 7 9 10 11 12 | 72.9
2'F-ANA at 1 2 3 6 7 9 10 11 | 60.9
2'F-ANA at 1 2 7 9 13 14 15 | 63
2'F-ANA at 1 2 4 5 7 12 13 | 81.1
2'F-ANA at 5 6 7 9 10 11 15 | 62.3
2'F-ANA at 4 5 6 7 8 9 10 11 12 13 15 | 49
2'F-ANA at 4 5 7 8 10 11 12 | 57.1
2'F-ANA at 2 3 5 10 11 14 | 56.1
2'F-ANA at 1 2 4 5 7 8 12 13 15 | 101
2'F-ANA at 1 2 3 4 7 8 11 12 15 | 329
2'F-ANA at 1 2 3 4 5 8 9 10 12 13 15 | 54.2
2'F-ANA at 3 4 6 8 9 10 12 14 | 200
2'F-ANA at 1 3 6 8 11 12 15 | 438

Sample 3 — target: CCNB1, cyclin fold, Cln2 fusion (human); technique: yeast growth competition, sequencing; medium: yeast; setting: weak parent motif; baseline: not given; direction: higher = stronger binding
Parent: E2F3 docking peptide (human); PPAKRRLELGESG
Substitution | normalised enrichment score
R6A | 0.607
G10A | 0.88
R5K L9F | 1.03
R5A | -0.0848
E8A | 0.528
R5A L7A | 0.331
L7A | 0.51
E11A | 0.882
R5K | -0.637

Sample 4 — technique: RNA Bind-n-Seq; form: RNA; medium: in vitro; tested at: not given; setting: RNA with constant flanks, ends assumed; baseline: input RNA pool; direction: higher = stronger binding
Target: RING finger protein unkempt homolog, zinc fingers 1-6, GST-SBP tag (UNK, Homo sapiens, UniProt Q9C0B0, residues 30-357)
Constant ends, left off below: GGGAGUUCUACAGUCCGACGAUC … CAACAGAGGAUUGAGCAUCA
Target sequence (chain): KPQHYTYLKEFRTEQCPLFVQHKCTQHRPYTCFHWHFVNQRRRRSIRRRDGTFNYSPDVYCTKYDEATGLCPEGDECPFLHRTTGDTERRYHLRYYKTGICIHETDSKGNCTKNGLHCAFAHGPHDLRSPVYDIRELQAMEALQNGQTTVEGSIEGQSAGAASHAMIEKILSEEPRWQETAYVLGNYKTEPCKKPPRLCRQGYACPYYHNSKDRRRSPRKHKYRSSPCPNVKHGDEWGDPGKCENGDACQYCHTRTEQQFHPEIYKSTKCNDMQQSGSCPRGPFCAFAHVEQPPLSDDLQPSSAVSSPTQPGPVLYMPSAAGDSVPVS
Strand | bound/input enrichment [ratio]
ACAGAUUUACUGAGAUUAUUUGAAUAUGGAGGUUUCCCACCAGAAGCCAACUAUCUUUUCUCCGGAGAUUAUGUGGACAGAGGAAAGCAGUCUUUGGAAACCAUUUGUUUGCUAUUGGCU | 0.622
UGAAACAGGGAGAGGCUGACACCCCCCCACCCUCCACCCCCGUGUCCACAACCCCCAACCCCGCUGUCUUCUCAGGGCCUGCCACCCAAAUAAGUCUGGCCCUAGCCUCAACUCUCUCUC | 0.661
CUCAAAGAAUUGCUUUCUUGGAAAGUUUUGAGCACAGAAGACUAUACAACCUGUUUUUCCCGCAGAAAUUUUCUAAAUGAAGCAGUGGACUAUGUUAUUCGCCACUUGAUUCAAGAAAAU | 0.111
UUUGUUUUCAUGUUAAGCACGCGUGCUGGUGGUCUUGGCAUCAAUCUUGCGACUGCUGAUGCCGUAAUUUUGUAUGAUUCUGAUUGGAAUCCCCAAGUAGAUCUUCAGGCUAUGGACCGA | 0.211
AAAGAAGAGAAAGAAGAUGAAAUUUCAUUAGAAGAUCUAAUUGAGAGAGAGCGUUCUGCCCCCGGUCCAAAUGUUACCAAAAUCACUCUAGAAUCUUUUCUUGCCUGGAAGAAAAGGAAA | 0.444
CACCAUGGCUGUGUUUGUCGUGCUCCUGGCGUUGGUGGCGGGUGUUUUGGGGAACGAGUUCCGUAUAUUAAAAUCACCAGGGUCUGUUGUUUUCCGAAAUGGAAAUUGGCCUAUACCAGG | 0.279
CAGAUUCCCAGCCUUUCAGCCAACCGUUCUCUCACAGAAGGCCUUGUCCUGGACACAAUGAAUGACCGCCUCAGCAAGAUCCUUCUAGACAUCAGUUUCCCUGGCCUGGAGGAGGACCCU | 0.186
AACCACUGACGUGUUUUUAUUUCCUUCUAUAUGAUUUUAAGAUGUGUUUUCUGCAUUCUGUACCGAAACAUAUCAAACUAAAUAAAAGCAGUGUCUUUAUUACAAUGUCAUUGCCUCUGA | 0.146
GAGUGGCCCCUGCUAGAUUCUUCCCAGAGAAAACUGUACAAAGAUGUAAUGCUGGAGAAUUACCGCAAUCUAAGUUCACUGGGUUAUCAGGUUGGCAAACCCCGCCUCAUCUCACACCUA | 0.21
GUGGCCUUUCAGUUCACGGUCACUCCGGACGGGAUUGACCUGCGGCUGAGCCAUGAAGCUCUCCGACAAAUCUAUCUCUCUGGACUUCAUUCCUGGAAAAAGAAGUUCAUCAGAUUCAAG | 0.0775
GCUACCUCUGUUGCUGCCCGAGGUCUAGAUGUGAAACAUCUGAUUCUUGUAGUAAAUUACCGCUGCCCCAACCAUUAUGAGGAUUAUGUACACAGAGCAGGGCGGACUGGAAGAGCAGGA | 0.558
